Results pooled from the literature.
Protocols differ between the studies behind these lines. Several values in a cell are separate wells, animals, samples, runs or records. ± marks the error that the study gave.
uncharacterized protein: uncharacterized protein (Anopheles coluzzii, UniProt A0A6E8VQK1)
Sequence of UniProt Q007T0 (whole entry, looked up): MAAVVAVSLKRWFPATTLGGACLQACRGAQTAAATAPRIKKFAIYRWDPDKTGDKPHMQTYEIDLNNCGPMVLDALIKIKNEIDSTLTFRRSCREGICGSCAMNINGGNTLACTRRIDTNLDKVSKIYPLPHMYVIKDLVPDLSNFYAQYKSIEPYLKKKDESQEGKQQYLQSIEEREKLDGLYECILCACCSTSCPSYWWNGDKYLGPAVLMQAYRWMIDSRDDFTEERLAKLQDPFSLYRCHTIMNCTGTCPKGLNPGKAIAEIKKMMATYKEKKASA
Sequence of UniProt A5GZW8 (whole entry, looked up): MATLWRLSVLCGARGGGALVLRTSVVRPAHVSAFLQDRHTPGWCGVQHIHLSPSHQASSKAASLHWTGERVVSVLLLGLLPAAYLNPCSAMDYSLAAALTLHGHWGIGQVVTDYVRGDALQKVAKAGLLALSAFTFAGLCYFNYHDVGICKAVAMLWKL
Sequence of UniProt D0VWV4 (whole entry, looked up): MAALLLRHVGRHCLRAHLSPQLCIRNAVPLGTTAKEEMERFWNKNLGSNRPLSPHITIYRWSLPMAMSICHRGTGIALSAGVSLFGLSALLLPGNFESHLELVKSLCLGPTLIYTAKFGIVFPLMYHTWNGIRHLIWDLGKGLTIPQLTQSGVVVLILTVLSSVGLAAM
Sequence of UniProt Q62351 (whole entry, looked up): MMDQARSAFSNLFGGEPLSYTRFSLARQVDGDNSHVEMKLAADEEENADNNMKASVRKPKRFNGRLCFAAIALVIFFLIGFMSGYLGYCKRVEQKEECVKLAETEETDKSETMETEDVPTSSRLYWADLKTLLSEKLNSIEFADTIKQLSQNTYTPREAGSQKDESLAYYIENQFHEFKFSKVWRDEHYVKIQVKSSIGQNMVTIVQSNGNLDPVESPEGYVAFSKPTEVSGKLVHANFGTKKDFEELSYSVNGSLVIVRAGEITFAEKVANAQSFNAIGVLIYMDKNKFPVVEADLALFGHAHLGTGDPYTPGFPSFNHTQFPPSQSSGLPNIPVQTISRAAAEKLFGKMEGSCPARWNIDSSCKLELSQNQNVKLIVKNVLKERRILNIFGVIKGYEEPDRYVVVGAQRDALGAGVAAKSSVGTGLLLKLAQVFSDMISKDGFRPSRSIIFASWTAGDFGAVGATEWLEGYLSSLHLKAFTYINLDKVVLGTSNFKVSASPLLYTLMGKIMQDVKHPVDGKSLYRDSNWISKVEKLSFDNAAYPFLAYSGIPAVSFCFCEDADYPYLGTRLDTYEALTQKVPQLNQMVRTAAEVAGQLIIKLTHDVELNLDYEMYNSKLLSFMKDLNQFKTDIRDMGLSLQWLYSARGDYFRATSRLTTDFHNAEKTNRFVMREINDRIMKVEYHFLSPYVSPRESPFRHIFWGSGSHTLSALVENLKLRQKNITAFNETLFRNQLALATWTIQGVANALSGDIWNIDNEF
Sequence of UniProt P49286 (whole entry, looked up): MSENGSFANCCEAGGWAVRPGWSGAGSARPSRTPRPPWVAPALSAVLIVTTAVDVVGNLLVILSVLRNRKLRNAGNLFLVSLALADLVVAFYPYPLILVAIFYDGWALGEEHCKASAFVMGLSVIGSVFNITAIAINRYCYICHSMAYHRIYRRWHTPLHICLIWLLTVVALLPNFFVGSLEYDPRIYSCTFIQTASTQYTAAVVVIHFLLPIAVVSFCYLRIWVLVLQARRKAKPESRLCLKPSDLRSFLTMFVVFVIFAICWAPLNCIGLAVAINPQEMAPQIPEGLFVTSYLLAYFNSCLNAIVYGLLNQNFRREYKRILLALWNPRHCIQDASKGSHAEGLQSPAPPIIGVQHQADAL
Sequence of UniProt P34995 (whole entry, looked up): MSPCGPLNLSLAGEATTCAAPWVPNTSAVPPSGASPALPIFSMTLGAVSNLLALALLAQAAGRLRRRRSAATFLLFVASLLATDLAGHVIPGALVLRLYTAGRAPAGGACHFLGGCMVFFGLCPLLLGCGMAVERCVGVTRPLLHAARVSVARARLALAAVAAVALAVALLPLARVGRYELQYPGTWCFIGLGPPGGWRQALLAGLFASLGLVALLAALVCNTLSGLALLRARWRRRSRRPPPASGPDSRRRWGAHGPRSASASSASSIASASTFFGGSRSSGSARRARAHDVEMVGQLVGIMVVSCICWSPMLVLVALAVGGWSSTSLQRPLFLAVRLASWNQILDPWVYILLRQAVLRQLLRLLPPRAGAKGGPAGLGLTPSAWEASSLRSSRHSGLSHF
Sequence of UniProt O14843 (whole entry, looked up): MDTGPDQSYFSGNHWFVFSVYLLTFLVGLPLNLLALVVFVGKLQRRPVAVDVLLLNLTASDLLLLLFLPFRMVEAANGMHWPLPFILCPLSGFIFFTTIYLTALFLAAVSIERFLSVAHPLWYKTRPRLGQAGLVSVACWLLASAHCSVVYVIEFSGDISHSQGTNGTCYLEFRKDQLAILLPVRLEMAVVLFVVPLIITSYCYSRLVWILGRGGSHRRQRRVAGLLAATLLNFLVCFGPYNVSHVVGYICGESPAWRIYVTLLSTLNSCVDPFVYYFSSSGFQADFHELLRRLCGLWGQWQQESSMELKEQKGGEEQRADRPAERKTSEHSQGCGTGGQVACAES
Sequence of UniProt F4KU78 (whole entry, looked up): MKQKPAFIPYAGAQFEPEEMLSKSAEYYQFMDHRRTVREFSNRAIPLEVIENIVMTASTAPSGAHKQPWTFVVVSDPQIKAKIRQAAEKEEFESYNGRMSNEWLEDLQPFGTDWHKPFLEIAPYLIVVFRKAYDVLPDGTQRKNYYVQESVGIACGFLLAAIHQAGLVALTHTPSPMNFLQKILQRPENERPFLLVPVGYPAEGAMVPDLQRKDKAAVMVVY
Sequence of UniProt Q15746 (whole entry, looked up): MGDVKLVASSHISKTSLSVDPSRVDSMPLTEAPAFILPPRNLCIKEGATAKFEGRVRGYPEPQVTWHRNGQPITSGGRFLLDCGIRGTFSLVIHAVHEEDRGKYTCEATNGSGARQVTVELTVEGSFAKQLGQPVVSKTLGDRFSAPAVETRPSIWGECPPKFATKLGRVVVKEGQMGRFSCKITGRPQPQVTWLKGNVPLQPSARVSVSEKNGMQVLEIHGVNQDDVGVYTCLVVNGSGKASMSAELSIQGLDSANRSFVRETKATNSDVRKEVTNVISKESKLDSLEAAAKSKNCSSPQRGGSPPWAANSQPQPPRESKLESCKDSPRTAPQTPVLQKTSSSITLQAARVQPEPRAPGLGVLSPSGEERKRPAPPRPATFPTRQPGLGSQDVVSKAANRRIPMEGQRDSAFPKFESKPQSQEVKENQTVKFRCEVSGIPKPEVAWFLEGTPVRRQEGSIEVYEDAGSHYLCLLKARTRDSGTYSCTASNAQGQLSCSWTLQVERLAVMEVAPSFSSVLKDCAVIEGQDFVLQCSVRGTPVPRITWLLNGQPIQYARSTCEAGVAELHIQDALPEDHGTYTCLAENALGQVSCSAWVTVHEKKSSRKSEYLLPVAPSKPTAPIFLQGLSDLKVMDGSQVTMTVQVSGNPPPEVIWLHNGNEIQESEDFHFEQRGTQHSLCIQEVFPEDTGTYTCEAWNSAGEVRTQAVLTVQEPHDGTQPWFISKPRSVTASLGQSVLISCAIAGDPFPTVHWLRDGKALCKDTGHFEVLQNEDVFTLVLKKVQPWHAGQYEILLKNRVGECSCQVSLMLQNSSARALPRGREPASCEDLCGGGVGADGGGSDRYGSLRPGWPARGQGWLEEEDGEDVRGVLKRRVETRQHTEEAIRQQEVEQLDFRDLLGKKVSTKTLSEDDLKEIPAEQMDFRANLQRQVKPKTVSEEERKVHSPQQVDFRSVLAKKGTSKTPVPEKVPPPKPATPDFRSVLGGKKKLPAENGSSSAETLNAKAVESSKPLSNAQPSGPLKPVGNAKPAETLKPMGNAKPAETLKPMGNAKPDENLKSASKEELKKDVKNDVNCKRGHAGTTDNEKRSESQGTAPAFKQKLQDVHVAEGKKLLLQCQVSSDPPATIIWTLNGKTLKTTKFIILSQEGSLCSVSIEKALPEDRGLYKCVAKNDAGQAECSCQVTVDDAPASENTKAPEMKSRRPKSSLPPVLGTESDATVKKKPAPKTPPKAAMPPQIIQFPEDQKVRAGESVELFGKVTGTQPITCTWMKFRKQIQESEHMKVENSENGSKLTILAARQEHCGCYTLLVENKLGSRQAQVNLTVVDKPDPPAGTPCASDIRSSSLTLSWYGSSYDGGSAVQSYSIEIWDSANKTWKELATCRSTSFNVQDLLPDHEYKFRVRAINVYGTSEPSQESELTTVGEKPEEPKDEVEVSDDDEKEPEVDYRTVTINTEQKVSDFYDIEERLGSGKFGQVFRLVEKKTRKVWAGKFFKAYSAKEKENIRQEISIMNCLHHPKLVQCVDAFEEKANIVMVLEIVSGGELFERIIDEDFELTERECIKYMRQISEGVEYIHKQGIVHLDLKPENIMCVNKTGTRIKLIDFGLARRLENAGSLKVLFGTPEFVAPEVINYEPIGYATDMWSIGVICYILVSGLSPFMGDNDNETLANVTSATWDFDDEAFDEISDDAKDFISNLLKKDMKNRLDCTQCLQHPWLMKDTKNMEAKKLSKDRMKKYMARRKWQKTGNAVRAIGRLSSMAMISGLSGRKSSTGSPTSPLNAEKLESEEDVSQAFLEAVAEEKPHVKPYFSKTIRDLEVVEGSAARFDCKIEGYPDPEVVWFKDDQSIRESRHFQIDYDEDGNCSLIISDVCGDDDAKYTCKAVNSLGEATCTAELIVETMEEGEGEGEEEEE
Sequence of UniProt C6WFL3 (whole entry, looked up): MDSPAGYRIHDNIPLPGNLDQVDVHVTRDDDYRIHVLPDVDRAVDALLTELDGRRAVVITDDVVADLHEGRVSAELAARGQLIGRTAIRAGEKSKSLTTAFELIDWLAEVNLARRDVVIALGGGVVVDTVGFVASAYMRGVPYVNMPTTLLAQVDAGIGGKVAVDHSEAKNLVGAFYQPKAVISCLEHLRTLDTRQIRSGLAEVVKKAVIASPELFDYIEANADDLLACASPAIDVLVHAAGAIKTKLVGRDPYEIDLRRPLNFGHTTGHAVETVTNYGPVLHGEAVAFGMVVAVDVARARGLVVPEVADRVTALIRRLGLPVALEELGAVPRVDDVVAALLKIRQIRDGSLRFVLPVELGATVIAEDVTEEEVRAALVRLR

C[C@H]1CN(c2n[nH]c3nc(N[C@H]4CC[C@H](NS(=O)(=O)CCC(F)(F)F)CC4)ncc23)CCO1  relative abundance (MYLK (Homo sapiens, UniProt Q15746); inhibitor, Kinobeads competition profiling; 0.8 µM; baseline: vehicle): 1.02
Nc1ncc(-c2nc(N3CCOCC3)nc(N3CCOCC3)n2)c(C(F)F)n1  remaining binding (BMPR1B (Homo sapiens, UniProt O00238); KINOMEscan; 10 µM): 72%
CCOC(=O)CC(SP(=O)(OC)OC)C(=O)OCC (stereo not drawn)  remaining activity (uncharacterized protein; enzyme activity, inhibitor; Sf9 cell homogenate; 0.0004587 µM, 0.1667 h, with: α-naphthyl acetate substrate; baseline: no inhibitor): 98.3%
Cc1nn(C)cc1-c1nc2c(N3CCN(Cc4ccc(Cl)cc4)CC3)c(Cl)cnc2[nH]1  remaining binding (PIK3CA (Homo sapiens, UniProt P42336, E542K); KINOMEscan; 1 µM; baseline: DMSO control): 94%
COC(=O)[C@H]1[C@H]2C[C@@H]3c4[nH]c5cc(OC)ccc5c4CCN3C[C@H]2C[C@@H](OC(=O)c2cc(OC)c(OC)c(OC)c2)[C@@H]1OC  FFN206 uptake (SLC18A2 (Homo sapiens, UniProt Q05940); inhibitor; HEK293; 1 µM, with: FFN206): inhibited
O=C(c1ccc(Cl)cc1)N1CCN2C(=O)N(OC(=O)N3CCOc4ccccc43)C(=O)C2C1 (stereo not drawn)  median ratio (LIPA (Homo sapiens, UniProt P38571); enzyme activity, inhibitor, MS-based ABPP; SW-620 in situ; 10 µM, 2 h, 37 °C; baseline: compound over DMSO, lower = stronger inhibition): 0.99
Clc1cc2c(cc1Cl)Oc1cc(Cl)c(Cl)cc1O2  EC80 (Uncharacterized protein (Takifugu rubripes, UniProt Q4JHL6); reporter gene, agonist, dual-luciferase; COS-7; 24 h): 1.21 ± 0.39 nM
O=C([O-])c1ccccc1-c1c2cc(Br)c(=O)cc-2oc2[c]([Hg+])c([O-])c(Br)cc12.[Na+].[Na+].[OH-]  remaining activity (DCLRE1A (Homo sapiens, UniProt Q6PJP8); exonuclease activity, inhibitor, fluorescence HTS; 10 µM, 80 min, with: 8 nM 5P-FQ substrate; baseline: high and low controls): 16.3%
CN1CCN(c2cc(-c3ccncc3)c(-c3ccc4ccccc4c3)nn2)CC1  activation (FFAR3 (Homo sapiens, UniProt O14843); agonist, FLIPR; 12.5 µM): 6.6%
CC(CCn1ccc(-c2ccc(-c3cn(Cc4ccc(F)cc4)nn3)cc2)cc1=O)(C(=O)NO)S(C)(=O)=O (stereo not drawn)  residence time (UDP-3-O-acyl-N-acetylglucosamine deacetylase (Pseudomonas aeruginosa, UniProt P47205); fluorescence; 37 °C): 68.2 ± 9.6 min
O=P(O)(O)OC[C@H]1C[C@](O)(CO)[C@@H](O)[C@H](O)[C@@H]1O  apparent Vmax (2-epi-valiolone synthase (Actinosynnema mirum, UniProt C6WFL3); phosphate release; 50 µM): 1.9 ± 0.2 µM/min
CC(C)[C@@H]1NC(=O)[C@H](C)OC(=O)[C@@H](C(C)C)NC(=O)[C@@H](C(C)C)OC(=O)[C@H](C(C)C)NC(=O)[C@H](C)OC(=O)[C@@H](C(C)C)NC(=O)[C@@H](C(C)C)OC(=O)[C@H](C(C)C)NC(=O)[C@H](C)OC(=O)[C@@H](C(C)C)NC(=O)[C@@H](C(C)C)OC1=O  L-OPA1 level (Metalloendopeptidase OMA1, mitochondrial (OMA1, Homo sapiens, UniProt Q96E52); Western blot; HEK293T, OMA1 siRNA knockdown; concentration not given): 51.9 ± 9.9%
C=C(CN(C(=O)c1c(C(F)F)nn(C)c1F)C1CC1)c1ccc(Cl)cc1Cl  reaction velocity (SDHD/SDHC/SDHB (Sus scrofa, UniProt A5GZW8+D0VWV4+Q007T0); enzyme activity, inhibitor, DCIP reduction; pig; 0.4 µM, with: DCIP 190 µM): 0.0198 µM/s and 0.0181 µM/s and 0.0179 µM/s
NC[C@H](NC(=O)c1ccc(C#Cc2ccccc2)cc1)C(=O)NO  ΔS of binding (UDP-3-O-acyl-N-acetylglucosamine deacetylase (Pseudomonas aeruginosa, UniProt P47205, C40S); ITC; concentration not given, 298 K): 0.128 kJ/(mol·K)
Oc1ccc(Cl)cc1Cl  fold change (FABP4 (Homo sapiens, UniProt P15090); binding, affinity selection mass spectrometry; 100 nM, pooled screen; baseline: other proteins): 57
CN(C(=O)n1cnc(-c2ccc[n+]([O-])c2)c1)C1CCCCC1  inhibition (PTGER1 (Homo sapiens, UniProt P34995); binding, item: EP1; 10 µM, human, with: [3H]prostaglandin E2): 7%
[2H]c1c([2H])c([C@]2([2H])CCCN2C(=O)C(C)(C)Oc2ccc3cn[nH]c3c2)c([2H])c([2H])c1C([2H])([2H])[2H]  remaining binding (ULK3 (Homo sapiens, UniProt Q6PHR2); KINOMEscan; 1 µM; baseline: DMSO control): 86%
CNC(=O)Oc1ccccc1OC(C)C  remaining activity (uncharacterized protein; enzyme activity, inhibitor; Sf9 cell homogenate; 0.04651 µM, 0.1667 h, with: α-naphthyl acetate substrate; baseline: no inhibitor): 95.9%
CN(C)CCNc1nc2cc(O)ccc2c2c1C(=O)c1ccccc1-2.Cl.Cl  FLuc/RLuc ratio (Protein transport protein Sec61 subunit alpha isoform 1 (Homo sapiens, UniProt P61619); reporter gene; HEK293 reporter-transfected; 6 h, CD4 signal peptide; baseline: FLuc over RLuc): 0.28 and 0.248 and 0.267
O=C(Cc1cccs1)N[C@@H]1C(=O)N2C(C(=O)O)=C(/C=C/c3ccc([N+](=O)[O-])cc3[N+](=O)[O-])CS[C@H]12  kcat (blaNDM-1 (Klebsiella pneumoniae, UniProt C7C422, C208D); substrate, steady-state kinetics): 7 ± 0.2 s⁻¹
c1ccc2c(c1)cc1ccc3cccc4ccc2c1c34  agonist response (Ahr (Rattus norvegicus, UniProt P41738); agonist, CALUX reporter; H4IIE; 0.0126 µg/mL): 75.7%
COc1cc(Nc2ncc(F)c(Nc3ccc4c(n3)NC(=O)C(C)(C)O4)n2)cc(OC)c1OC  inhibition (NEK3 (Homo sapiens, UniProt P51956); KINOMEscan; 10 µM): 99%
COc1cc(N)c(Cl)cc1C(=O)NC1CN2CCC1CC2 (stereo not drawn)  log2 fold change (G-protein coupled receptor 151 (GPR151, Homo sapiens, UniProt Q8TDV0); β-arrestin recruitment, TANGO luminescence, item: GPR151; concentration not given; baseline: basal luminescence): 0.254
O=C(Nc1cnccc1Cl)N1CCN(Cc2ccc3c(c2)OC(F)(F)O3)CC1  inhibition (MTNR1B (Homo sapiens, UniProt P49286); radioligand binding; concentration not given): 7% and 2%
CC[C@H](C)[C@H](NC(=O)CNC(=O)[C@@H](N)CCCCN)C(=O)N[C@@H](CC(C)C)C(=O)N[C@@H](CCCCN)C(=O)N[C@@H](CCCNC(=N)N)C(=O)N[C@@H](CCC(=O)O)C(=O)N[C@@H](CCCCN)C(=O)N[C@@H](CCCNC(=N)N)C(=O)N[C@@H](CC(C)C)C(=O)N[C@@H](CCCNC(=N)N)C(=O)N[C@@H](CCCNC(=N)N)C(=O)N[C@@H](CCCCN)C(=O)N[C@@H](CC(N)=O)C(=O)N[C@H](C(=O)N[C@@H](Cc1c[nH]cn1)C(=O)N[C@@H](Cc1c[nH]c2ccccc12)C(=O)N1CCC[C@H]1C(=O)N[C@@H](CCC(=O)O)C(=O)N[C@@H](CCC(=O)O)C(=O)NCC(=O)N[C@@H](CCCCN)C(=O)N[C@@H](CC(C)C)C(=O)N[C@@H](CCCNC(=N)N)C(=O)N[C@@H](CCC(=O)O)C(=O)N[C@@H](Cc1ccc(O)cc1)C(=O)N[C@@H](Cc1ccccc1)C(=O)N[C@@H](Cc1ccc(O)cc1)C(=O)N[C@@H](Cc1ccccc1)C(=O)N[C@@H](CCC(=O)O)C(=O)N[C@@H](CC(C)C)C(=O)N[C@@H](CC(=O)O)C(=O)N[C@@H](CCC(=O)O)C(=O)N[C@@H](C)C(=O)N[C@@H](CCC(=O)O)C(=O)N[C@@H](CCCNC(=N)N)C(=O)N[C@H](C(=O)N[C@@H](CC(N)=O)C(=O)N[C@H](C(=O)O)C(C)C)C(C)C)C(C)C  ΔG of binding (PPP1CA (Homo sapiens, UniProt P62136); ITC; concentration not given, 25 °C, PP1α 7-330): -11.5 ± 0.1 kcal/mol
c1cc(N2CCNCC2)c2cc[nH]c2c1  Emax (CHRM1 (Homo sapiens, UniProt P11229); ERK1/2 phosphorylation, agonist; CHO cells): < 10%
CC(C)C[C@H](NC(=O)[C@H](Cc1ccccc1)NC(=O)[C@@H]1CCCN1C(=O)[C@H](CCCNC(=N)N)NC(=O)[C@H](CCC(=O)O)NC(=O)[C@@H]1CCCN1C(=O)[C@H](CO)NC(=O)[C@@H](N)CCC(=O)O)C(=O)O  koff (Epithelial sodium channel subunit gamma (Homo sapiens, UniProt P51170); binding, bio-layer interferometry): 0.0223 s⁻¹
CO[C@H]1C[C@H](O[C@H]2[C@H](C)O[C@@H](O[C@@H]3/C(C)=C/C[C@@H]4C[C@@H](C[C@]5(C=C[C@H](C)[C@@H](C6CCCCC6)O5)O4)OC(=O)[C@@H]4C=C(C)[C@@H](O)[C@H]5OC/C(=C\C=C\[C@@H]3C)[C@]54O)C[C@@H]2OC)O[C@@H](C)[C@@H]1O  efficacy (Nuclear receptor subfamily 1 group I member 3 (Homo sapiens, UniProt Q14994); coactivator recruitment; concentration not given, with: 0.1 µM CITCO): 1.84 ± 0.54%
O=C(Nc1cccnn1)N1CCC(=Cc2cccc(Oc3ccc(C(F)(F)F)cn3)c2)CC1  inhibition (ryanodine receptor RyR3, rat; binding; 50 µM, with: [3H]ryanodine): 1%
Nc1ncnc2c1ncn2[C@@H]1O[C@H](COP(=O)(O)OP(=O)(O)O)[C@@H](O)[C@H]1O  binding enthalpy (ΔH) (Cell cycle histidine kinase CckA, cytoplasmic region (Caulobacter vibrioides, UniProt Q9X688); isothermal titration calorimetry; Caulobacter crescentus; concentration not given, 25 °C, with: without c-di-GMP): -1.6 kcal/mol
COc1ccc(N2C(=O)N(c3c(C)cccc3Cl)Cc3cnc(Nc4ccc(C5CCN(C)CC5)cc4OC)nc32)nc1  inhibition (TEK (Homo sapiens, UniProt Q02763); kinase activity, inhibitor; 0.5 µM, kinase TIE2): 22%
c1cncc([C@@H]2CCCCN2)c1  resting-state kon (Chrnd/Chrna1/Chrne (Mus musculus, UniProt P02716+P04756+P20782); single-channel kinetics; wild-type receptor): 3.19e+07 M⁻¹ s⁻¹
CCCCCCCCCCCCCC[N+](C)(C)C  potency ratio (Sodium channel protein type 4 alpha, BTX-activated (Oryctolagus cuniculus, UniProt G1SLL9); baseline: internal over external application): > 200 fold
CC[C@@H](C)[C@@H](NC(=O)[C@@H](Cc1ccc(O)cc1)NC(=O)[C@H]1CCCN1C(=O)[C@@H](CCCNC(=N)N)NC(=O)[C@H](N)Cc1c[nH]cn1)C(=O)N[C@H](C)C(=O)N[C@H](Cc1c[nH]cn1)C(=O)N[C@H](CCCNC(=N)N)C(=O)N[C@H](CCCCNC(=O)c1cccc(S(=O)(=O)F)c1)C(=O)N[C@H](Cc1ccc(O)cc1)C(=O)N[C@H](CO)C(=O)N[C@H](Cc1ccccc1)C(N)=O  surface expression (Transferrin receptor protein 1 (Tfrc, Mus musculus, UniProt Q62351); flow cytometry; RAW264.7; 24 h, pH 7.4, unit not given; baseline: 0 h): 0.919 and 0.887
Nc1ncnc2c1ncn2[C@H]1C[C@H](O)[C@@H](COP(=O)(O)OP(=O)(O)OP(=O)(O)O)O1  Km (Gag-Pol polyprotein, reverse transcriptase (gag-pol, Human immunodeficiency virus type 1 group M subtype B, UniProt P04585); single nucleotide extension, substrate; wild type, G:A mismatched primer/template): 117 ± 60.1 µM
N[C@@H](Cc1ccc(O)c(F)c1)C(=O)O  affinity ratio (Iodotyrosine deiodinase (Haliscomenobacter hydrossis, UniProt F4KU78); binding, fluorescence; baseline: iodotyrosine over compound, higher = weaker than iodotyrosine): 8 fold

Excerpt of the above:
CC(CCn1ccc(-c2ccc(-c3cn(Cc4ccc(F)cc4)nn3)cc2)cc1=O)(C(=O)NO)S(C)(=O)=O (stereo not drawn)  residence time (UDP-3-O-acyl-N-acetylglucosamine deacetylase (Pseudomonas aeruginosa, UniProt P47205); fluorescence; 37 °C): 68.2 ± 9.6 min
O=P(O)(O)OC[C@H]1C[C@](O)(CO)[C@@H](O)[C@H](O)[C@@H]1O  apparent Vmax (2-epi-valiolone synthase (Actinosynnema mirum, UniProt C6WFL3); phosphate release; 50 µM): 1.9 ± 0.2 µM/min
CC(C)[C@@H]1NC(=O)[C@H](C)OC(=O)[C@@H](C(C)C)NC(=O)[C@@H](C(C)C)OC(=O)[C@H](C(C)C)NC(=O)[C@H](C)OC(=O)[C@@H](C(C)C)NC(=O)[C@@H](C(C)C)OC(=O)[C@H](C(C)C)NC(=O)[C@H](C)OC(=O)[C@@H](C(C)C)NC(=O)[C@@H](C(C)C)OC1=O  L-OPA1 level (Metalloendopeptidase OMA1, mitochondrial (OMA1, Homo sapiens, UniProt Q96E52); Western blot; HEK293T, OMA1 siRNA knockdown; concentration not given): 51.9 ± 9.9%
